Assay results gathered from unrelated publications.
Every numbered part comes from another study and shows a few of its results, in no order. Substitutions count along the parent as printed.

Set 1
Target: Sal-like protein 4, full length isoform B (SALL4, Homo sapiens, UniProt Q9UJQ4-2, residues 1-616)
Method: universal PBM
Form: double-stranded DNA, one strand shown
Sample: in vitro
Tested at: not given
Setting: 8-mer, flanks averaged, mean of replicates
Direction: higher = stronger binding
Quantity: E-score
Residues (chain): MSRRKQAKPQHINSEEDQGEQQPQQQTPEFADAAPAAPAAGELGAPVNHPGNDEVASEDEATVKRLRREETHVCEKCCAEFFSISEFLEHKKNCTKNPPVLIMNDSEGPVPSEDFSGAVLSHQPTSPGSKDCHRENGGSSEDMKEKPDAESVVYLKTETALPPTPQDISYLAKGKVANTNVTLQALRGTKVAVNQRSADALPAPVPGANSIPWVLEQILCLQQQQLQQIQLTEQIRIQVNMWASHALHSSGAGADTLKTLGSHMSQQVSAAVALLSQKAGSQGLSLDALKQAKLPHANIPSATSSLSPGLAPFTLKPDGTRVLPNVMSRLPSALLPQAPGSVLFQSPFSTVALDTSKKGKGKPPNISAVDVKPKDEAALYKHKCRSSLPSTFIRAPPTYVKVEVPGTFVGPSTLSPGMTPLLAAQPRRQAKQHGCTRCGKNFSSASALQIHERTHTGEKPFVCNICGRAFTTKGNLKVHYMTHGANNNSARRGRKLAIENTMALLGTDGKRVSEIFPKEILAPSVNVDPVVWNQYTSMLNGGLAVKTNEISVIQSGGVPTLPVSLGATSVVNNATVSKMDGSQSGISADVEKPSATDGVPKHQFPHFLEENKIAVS
AAACCAAG: 0.122
ATGGGGAC: -0.226
ACGAATAT: 0.343
CGCGGGAC: -0.164
TGCTGACA: 0.0373
CCACGTTA: 0.159
TGCTTCCA: -0.0407

Set 2
Target: RNA binding protein fox-1 homolog 2, RRM domain, GST-SBP tag (RBFOX2, Homo sapiens, UniProt O43251-10, residues 100-194)
Method: RNA Bind-n-Seq
Form: RNA
Sample: in vitro
Tested at: 365 nM
Setting: natural RNA segment, single round, ends assumed
Reference: no-protein control
Direction: higher = stronger binding
Quantity: RBNS enrichment (R)
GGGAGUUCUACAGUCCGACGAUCAGUUAAGUCACAGCUUAAUGUGUAGAUAUGAGCUGUUUACAGUGGUGACUAUAUAUAAUUGGGGAGAAGAAGGGAAGAGAGCAGCAGUAGCUUAAGCCUGUUGCUAAGAAUGGAAUUCUCGGGUGCCAA: 2.12
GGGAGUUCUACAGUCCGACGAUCGGGCGAAUGCGUCGCCACCCCUGACCCCGCAUCUGGAGGGCGGGGCUUUGCUUGAGAAGACCCCAGGGAGGACUGUCUUCCACUGCCUGGACUCCUCUCAAGUUGAAGUCUGGAAUUCUCGGGUGCCAA: 3.06
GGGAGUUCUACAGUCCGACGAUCCCUUGAAGGACACAGAGAGAAGUAUGUGUGUGUGGUGUGUUUCCAGCUCUGGCUCCCGAAGGGGCAAAGCAGCCUCCUGUUUACAGAAGGUCCACGCGAGCUAUCCCCGUUGGAAUUCUCGGGUGCCAA: 0.852
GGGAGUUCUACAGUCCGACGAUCUCUCUAUGUACAUAUCUAUCUACUUCUGACUGUAGAUGGGUAUAUAGAUAGAUGCCAAGCUUCUUAUGUUCUGGGGGUAGUAUGCAUCAUUAUUGGGUCUCUGCCUUAAAUGGAAUUCUCGGGUGCCAA: 0.4
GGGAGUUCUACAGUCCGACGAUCAUCCCCGAGGGAAGAGAGGUACCCAUGGCUUCAGUGAGCACAUGCCAAGCCCAGGAUGCCAGCUGGCACCUCUGCAAUCUCCCCACCAAAUACACAGAGCCAGCUCUACCUGGAAUUCUCGGGUGCCAA: 0.371

Set 3
Target: ABI1, truncated, D143A, DHFR fusion (Arabidopsis thaliana)
Method: DHFR PCA, deep sequencing
Sample: yeast
Setting: methotrexate growth selection, single substitutions
With: (+)-ABA 0 µM
Reference: wild-type fitted maximum
Direction: higher = stronger binding
Quantity: relative binding score
Parent: PYL1, truncated, DHFR fusion (Arabidopsis thaliana); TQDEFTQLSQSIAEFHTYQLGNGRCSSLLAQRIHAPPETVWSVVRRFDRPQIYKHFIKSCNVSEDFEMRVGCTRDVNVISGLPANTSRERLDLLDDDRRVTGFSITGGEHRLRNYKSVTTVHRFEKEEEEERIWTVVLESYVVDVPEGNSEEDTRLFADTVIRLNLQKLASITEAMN
E125W: 7.73%
D159L: -9.93%
S104Q: -3.88%
L29H: 30.9%
D144H: 1.95%

Further values, each from its own experiment
PhoQ, residues 284 288 289 292 302 303 SSLVEF  fold induction (PhoP, residues 12 14 15 18 19 FWNTL (Escherichia coli, UniProt P23836); Sort-seq, measured: YFP reporter; E. coli; PhoQ-PhoP variant library, with: 10 µM Mg2+; reference: high Mg2+ state, higher = stronger signaling): 3

Excerpt of the above (set 1):
CCACGTTA: 0.159
TGCTTCCA: -0.0407
